Published values gathered from unrelated publications.
Parts stem from different laboratories: compare values within a part only. Values joined by “and” are separate records of one study, mostly repeats; a detail may differ.

Study 1
SMILES: CC[C@H](C)[C@H](NC(C)=O)C(=O)N[C@@H](CCC(=O)O)C(=O)N[C@H](C(=O)N[C@H](C=O)CC(=O)O)[C@@H](C)O
Observed: enzyme activity
Action: inhibitor
CASP6: Caspase-6 (CASP6, Homo sapiens, UniProt P55212)
Chain of UniProt P55212 (whole entry, looked up): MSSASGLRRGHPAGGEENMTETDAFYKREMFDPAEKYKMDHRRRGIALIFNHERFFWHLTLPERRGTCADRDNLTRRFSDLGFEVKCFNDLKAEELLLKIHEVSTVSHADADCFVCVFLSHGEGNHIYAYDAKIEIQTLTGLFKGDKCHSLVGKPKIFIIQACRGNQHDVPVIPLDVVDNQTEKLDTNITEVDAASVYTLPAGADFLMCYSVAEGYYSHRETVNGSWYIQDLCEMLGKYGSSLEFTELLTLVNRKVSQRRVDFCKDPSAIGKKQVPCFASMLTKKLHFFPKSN
CASP8: Caspase-8 (CASP8, Homo sapiens, UniProt Q14790)
Chain of UniProt Q14790 (whole entry, looked up): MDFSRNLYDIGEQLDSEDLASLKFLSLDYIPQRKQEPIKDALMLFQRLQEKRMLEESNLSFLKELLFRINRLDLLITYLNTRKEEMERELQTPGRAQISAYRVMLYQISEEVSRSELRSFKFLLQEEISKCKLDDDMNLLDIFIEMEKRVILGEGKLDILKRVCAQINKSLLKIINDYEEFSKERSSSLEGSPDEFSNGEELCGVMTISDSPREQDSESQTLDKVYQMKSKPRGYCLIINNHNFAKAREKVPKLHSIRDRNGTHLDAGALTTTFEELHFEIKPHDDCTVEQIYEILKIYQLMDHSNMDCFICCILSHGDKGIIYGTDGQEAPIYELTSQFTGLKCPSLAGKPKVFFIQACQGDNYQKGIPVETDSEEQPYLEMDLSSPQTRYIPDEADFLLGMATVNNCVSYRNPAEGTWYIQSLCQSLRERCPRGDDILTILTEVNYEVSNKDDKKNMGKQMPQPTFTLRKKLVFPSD
For CASP6; 5 µM: inhibition read 93%.
It gave 78% for inhibition (CASP8; 0.1 µM).
It gave 34% for inhibition (CASP6; 0.5 µM).
The inhibition was 38% (CASP8; 10 nM).

Study 2
Structure (SMILES): O=C1CCC(N2Cc3c(ccc4c3OCC43CCN(Cc4ccccc4)CC3O)C2=O)C(=O)N1 (centres unmarked)
Target: CRBN/Zinc finger protein Helios (Homo sapiens, UniProt Q96SW2+Q9UKS7)
Chain of UniProt Q9UKS7 (whole entry, looked up): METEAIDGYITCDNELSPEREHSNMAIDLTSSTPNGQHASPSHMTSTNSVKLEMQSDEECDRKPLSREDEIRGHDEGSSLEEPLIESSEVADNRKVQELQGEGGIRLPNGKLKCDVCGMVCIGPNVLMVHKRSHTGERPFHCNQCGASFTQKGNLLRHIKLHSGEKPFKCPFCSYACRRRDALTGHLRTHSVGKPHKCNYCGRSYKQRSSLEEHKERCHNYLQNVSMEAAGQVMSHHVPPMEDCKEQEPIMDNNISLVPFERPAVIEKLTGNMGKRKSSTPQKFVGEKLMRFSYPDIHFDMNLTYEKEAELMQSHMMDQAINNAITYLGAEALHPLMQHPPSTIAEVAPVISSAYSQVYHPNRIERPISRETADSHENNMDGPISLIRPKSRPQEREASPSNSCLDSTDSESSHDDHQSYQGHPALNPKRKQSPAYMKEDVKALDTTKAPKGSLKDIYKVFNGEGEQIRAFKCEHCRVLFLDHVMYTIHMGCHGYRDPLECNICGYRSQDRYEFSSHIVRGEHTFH
Chain of UniProt Q96SW2 (whole entry, looked up): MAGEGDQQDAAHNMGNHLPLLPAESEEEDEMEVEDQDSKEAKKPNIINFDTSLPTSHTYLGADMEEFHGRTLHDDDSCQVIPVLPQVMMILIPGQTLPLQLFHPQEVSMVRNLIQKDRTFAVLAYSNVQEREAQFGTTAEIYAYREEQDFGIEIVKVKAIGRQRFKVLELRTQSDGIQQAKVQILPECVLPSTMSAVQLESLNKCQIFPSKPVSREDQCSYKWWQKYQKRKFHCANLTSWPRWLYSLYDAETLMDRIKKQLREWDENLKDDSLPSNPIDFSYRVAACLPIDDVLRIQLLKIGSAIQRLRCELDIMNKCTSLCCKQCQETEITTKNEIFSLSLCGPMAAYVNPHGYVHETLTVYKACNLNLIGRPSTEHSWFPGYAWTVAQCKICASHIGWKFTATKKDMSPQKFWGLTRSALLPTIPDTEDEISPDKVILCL
Action: degrader
Technique: HiBiT
Cell line: HEK293
It gave 66.9% for protein remaining (3333.33 nM).
4.572 nM — protein remaining: 109%.
It gave 91% for protein remaining (41.15 nM).
For 0.1694 nM: protein remaining read 106%.
For 1.524 nM: protein remaining read 93.4%.
13.72 nM — protein remaining: 97.2%.

Study 3
Target: Membrane-associated tyrosine- and threonine-specific cdc2-inhibitory kinase (PKMYT1, Homo sapiens, UniProt Q99640)
Chain of UniProt Q99640 (whole entry, looked up): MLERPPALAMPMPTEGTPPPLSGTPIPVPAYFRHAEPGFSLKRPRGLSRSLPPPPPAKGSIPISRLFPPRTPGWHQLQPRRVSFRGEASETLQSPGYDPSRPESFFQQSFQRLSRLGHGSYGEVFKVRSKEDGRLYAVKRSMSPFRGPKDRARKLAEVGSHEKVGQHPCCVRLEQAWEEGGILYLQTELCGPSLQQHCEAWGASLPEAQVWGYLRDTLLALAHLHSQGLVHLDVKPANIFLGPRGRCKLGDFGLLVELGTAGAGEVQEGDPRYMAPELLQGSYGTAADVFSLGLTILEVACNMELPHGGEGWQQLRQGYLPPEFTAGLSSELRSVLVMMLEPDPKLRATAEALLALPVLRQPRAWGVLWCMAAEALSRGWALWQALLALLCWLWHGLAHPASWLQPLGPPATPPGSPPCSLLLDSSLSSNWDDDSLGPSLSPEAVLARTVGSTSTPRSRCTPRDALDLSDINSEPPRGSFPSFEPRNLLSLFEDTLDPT
Observed: binding
Technique: HTRF
Concentration: 37.04 nM
With Cc1ccc(O)c(C)c1-c1cnc2[nH]c(-c3cnc(N4CCC(CN5CCN(c6ccc(N7CCC(=O)NC7=O)cc6F)CC5)CC4)nc3)cc2c1C#N the inhibition was 95.6% and 95.5%.
For Cc1ccc(O)c(C)c1-c1cnc2[nH]c(-c3cnc(N4CCC(CN5CCN(c6ccc(C(=O)NC7CCC(=O)NC7=O)c(F)c6)CC5)CC4)nc3)cc2c1C#N (racemic), the inhibition was 96.2% and 95.6%.
The inhibition of Cc1ccc(O)c(C)c1-c1cnc2[nH]c(-c3cnc(N4CCC(CN5CCN(c6ccc7c8c(cccc68)C(=O)N7C6CCC(=O)NC6=O)CC5)CC4)nc3)cc2c1C#N (racemic) is reported as 90.1% and 89.8%.

Study 4
SMILES: N=C(N)NCCCCCCN1CCC23c4c5ccc(O)c4OC2c2nc4ccccc4cc2CC3(O)C1C5 (centres unmarked)
Target: Mu-type opioid receptor (OPRM1, Homo sapiens, UniProt P35372)
Chain of UniProt P35372 (whole entry, looked up): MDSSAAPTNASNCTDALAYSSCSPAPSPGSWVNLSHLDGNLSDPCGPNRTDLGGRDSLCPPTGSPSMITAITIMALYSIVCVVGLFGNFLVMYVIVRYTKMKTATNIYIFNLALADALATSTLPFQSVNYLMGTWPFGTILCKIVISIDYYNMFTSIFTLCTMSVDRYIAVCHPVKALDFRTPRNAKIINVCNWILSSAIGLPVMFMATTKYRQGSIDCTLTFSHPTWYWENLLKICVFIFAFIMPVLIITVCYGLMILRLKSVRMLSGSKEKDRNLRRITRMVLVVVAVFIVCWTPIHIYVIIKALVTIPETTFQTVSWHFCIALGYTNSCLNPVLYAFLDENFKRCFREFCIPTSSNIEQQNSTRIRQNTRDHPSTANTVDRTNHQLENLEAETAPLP
Action: competitor
Technique: radioligand binding
It gave 96.1% and 110% and 146% for “normalised specific binding” (100 pM).
1 pM — “normalised specific binding”: 125% and 124% and 102%.
It gave 94.4% and 121% and 132% for “normalised specific binding” (10 pM).
For 1 nM: “normalised specific binding” read 95.4% and 113% and 146%.

Some of these lines once more (study 1):
It gave 78% for inhibition (CASP8; 0.1 µM).
It gave 34% for inhibition (CASP6; 0.5 µM).
The inhibition was 38% (CASP8; 10 nM).
